Experimental data pooled from the literature.
Lines come from different studies, so protocols differ. pIC50: −log10 of the molar value.
Cell line: THP-1

SMILES	read-out	technique	concentration	time	setting	measurement	result
Cc1ccc(NC(=O)N2CCCN3CCC(c4ccc(C#Cc5cccnc5)cc4)C3C2)cc1 (stereo not shown)	cell growth or viability	ATP luminescence	–	72 h	–	CC50	7.17 µM
CC(=O)[O-].F[P-](F)(F)(F)(F)F.[Ni+2].c1ccc(CN2CCN3CCN(CC2)CCN(Cc2ccccc2)CC3)cc1	cytotoxicity	–	–	–	–	IC90	> 20 µM
CC1OC(Oc2c(-c3ccc(O)cc3)oc3cc(O)cc(O)c3c2=O)C(OC(=O)C=Cc2ccc(O)cc2)C(O)C1OC(=O)C=Cc1ccc(O)cc1 (stereo not shown)	cell growth or viability	–	–	48 h	–	pIC50	< 5.00
COc1ccc(NC(=O)N2CCCN3CCC(c4ccc(C#Cc5ccccc5)cc4)C3C2)cc1 (stereo not shown)	cell growth or viability	ATP luminescence	–	72 h	–	CC50	7.94 µM
CC/C(=C\c1ccc(OCC(=O)NC(C(=O)N2CCOCC2)c2ccccc2)cc1)[N+](=O)[O-] (stereo not shown)	–	MTT	–	72 h	10% FBS	CC50	46.8 µM
Cc1ccc(NC(=O)N2CCCN3CCC(c4ccc(C#CC5CCCC5O)cc4)C3C2)cc1 (stereo not shown)	cell growth or viability	ATP luminescence	–	72 h	–	CC50	20 µM
[Cl-].[Cl-].[Mn+2].c1ccc(CN2CCCNCCN(Cc3ccccc3)CCCNCC2)cc1	cytotoxicity	–	–	–	–	IC90	> 19 µM
CC/C(=C\c1ccc(OCC(=O)NC(C(=O)N2CCSCC2)c2ccccc2)cc1)[N+](=O)[O-] (stereo not shown)	–	MTT	–	72 h	10% FBS	CC50	2.98 µM
COC(=O)Cn1c(=O)n(C(C)=O)c2cc(B(O)O)ccc21	–	CellTiter-Glo	–	6 h	–	highest non-toxic concentration	< 2 mM
CCOC(=O)c1c(C#N)c(-c2cn(C)c3ccccc23)n(NC(=O)OC(C)(C)C)c1C	cell growth or viability	–	–	–	–	CC50	61.2 µM
CCOC(=O)c1cn(CC(c2c[nH]c3cc(Br)ccc23)c2c[nH]c3cc(Br)ccc23)c(C)c1C(=O)OC	cell growth or viability	MTS	–	72 h	–	CC50	124 µM
CCCCCc1cn(CCCCCCCCCCCOP(=O)([O-])OCC[N+](C)(C)C)nn1	–	–	up to 500 µM	–	–	cytotoxicity	not toxic
[Cl-].[Cl-].[Mn+2].c1ccc(CN2CCNCCN(Cc3ccccc3)CCNCC2)cc1	cytotoxicity	–	–	–	–	IC90	> 20 µM
COc1ccc(CCNC(=O)C(=O)[C@H](Cc2ccccc2)NC(=O)c2oc3cc(OC)c(OC)cc3c(=O)c2C)cc1	cell growth or viability	–	–	72 h	–	CC50	29.1 µM
CC(=O)[O-].CN(C)C=O.F[P-](F)(F)(F)(F)F.[Co+2].c1ccc(CN2CCN3CCCN(CC2)CCN(Cc2ccccc2)CC3)cc1	cytotoxicity	–	–	–	–	IC90	> 10 µM
CCOC(=O)c1c(C#N)c(-c2c[nH]c3c(C)cccc23)n(NC(=O)OC(C)(C)C)c1C	cell growth or viability	–	–	–	–	CC50	65.2 µM

Excerpt of the above:
SMILES	read-out	technique	concentration	time	setting	measurement	result
COc1ccc(NC(=O)N2CCCN3CCC(c4ccc(C#Cc5ccccc5)cc4)C3C2)cc1 (stereo not shown)	cell growth or viability	ATP luminescence	–	72 h	–	CC50	7.94 µM
CC/C(=C\c1ccc(OCC(=O)NC(C(=O)N2CCOCC2)c2ccccc2)cc1)[N+](=O)[O-] (stereo not shown)	–	MTT	–	72 h	10% FBS	CC50	46.8 µM
Cc1ccc(NC(=O)N2CCCN3CCC(c4ccc(C#CC5CCCC5O)cc4)C3C2)cc1 (stereo not shown)	cell growth or viability	ATP luminescence	–	72 h	–	CC50	20 µM
